Results from different studies.
Protocols differ between the studies behind these lines. Several values in a cell are separate wells, animals, samples, runs or records.
Effect on: metabolic stability

SMILES	system	setting	half-life
CC(C)CCn1c(CN2CCCN(C(=O)C3CC3)CC2)nc2c1c(=O)n(C)c(=O)n2C	rat, liver microsomes	–	5 min
Nc1ccn(C[C@@H](CO)OCP(=O)(O)OCCCS(=O)(=O)CCCCCCCCCCC2CCC2)c(=O)n1	rat, hepatocytes	1 µM	62.4 min
CCOC(=O)N1CCN(Cc2nc3c(c(=O)n(C)c(=O)n3C)n2CCC(C)C)CC1	rat, liver microsomes	–	23 min
CC1(CCCCCCCCCCCCCCOCCCOP(=O)(O)CO[C@H](CO)Cn2ccc(N)nc2=O)COC1	rat, hepatocytes	1 µM	9.01 min
CC(C)CCCn1c(OC2CCN(C(=O)C3CC3)CC2)nc2c1c(=O)n(C)c(=O)n2C	rat, liver microsomes	–	3 min
COc1cc(-c2cnc3nc2NCCCNS(=O)(=O)c2cccc(c2)N3)ccc1F	Sprague-Dawley rat, liver microsomes	10 µM, pH 7.4	396 min
Cc1cccc(Cn2c(CN3CCN(C(=O)C4CC4)CC3)nc3c2c(=O)n(C)c(=O)n3C)c1	rat, liver microsomes	–	6 min
Nc1ccn(C[C@@H](CO)OCP(=O)(O)OCCCS(=O)(=O)CCCCCCCCCCCCC2CCC2)c(=O)n1	rat, hepatocytes	1 µM	94.3 min
CSCC[C@H](NC(=O)[C@H](CC(C)C)NC(=O)[C@H](Cc1c[nH]cn1)NC(=O)CNC(=O)[C@@H](NC(=O)[C@H](C)NC(=O)[C@H](Cc1c[nH]c2ccccc12)NC(=O)[C@H](CCC(N)=O)NC(=O)CCCCCN)C(C)C)C(N)=O	male Sprague-Dawley rat, hepatocytes	10 µg/mL	4 min
Nc1ccn(C[C@@H](CO)OCP(=O)(O)OCCCS(=O)(=O)CCCCCCCCCCCCCC2CCC2)c(=O)n1	rat, hepatocytes	1 µM	202 min
CNC(=O)c1ccc(Oc2nc3c(c(=O)n(C)c(=O)n3C)n2CCC(C)C)cc1	rat, liver microsomes	–	> 30 min
CN1C(=O)C2(Nc3ccccc3C(=O)N2Cc2ccccc2)c2cc(Br)ccc21 (centres unmarked)	rat, hepatocytes	–	< 2.3 min
Nc1nc(Cl)nc2c1ncn2Cc1cc(OCC(F)F)cc(-c2cccnc2F)c1	rat, liver microsomes	–	27 min
O=C(Cc1ccccc1)Nc1nc2ccccc2n1Cc1ccccc1	rat, liver microsomes	–	12 min and 12.2 min
CCOC(=O)N1CCC(Oc2nc3c(c(=O)n(C)c(=O)n3C)n2CCC(C)C)CC1	rat, liver microsomes	–	11 min
COC[C@H](NC(=O)[C@H](CCc1ccccc1)NC(=O)CN1CCOCC1)C(=O)N[C@H](/C=C/S(C)(=O)=O)CC(C)C	rat, hepatocytes	–	75 min
CN(C)C(=O)c1cncc(N2Cc3cn(Cc4ccc(F)cc4)nc3C2)n1	rat, liver microsomes	–	309 min
COC(=O)c1ccc(/C=N/NS(=O)(=O)c2ccc(OC)c(OC)c2)cc1	male Wistar rat, liver microsomes	10 µM, pH 7.4	4.3 min
CN(C)C(=O)c1cncc(N2Cc3cnn(Cc4ccc(F)cc4)c3C2)n1	rat, liver microsomes	–	37 min
C#Cc1cccc(Nc2ncnc3cc(OC)c(OCCCN4CCOCC4)cc23)c1	rat, liver microsomes	1 µM, pH 7.4	11.8 min

Repeated from above:
SMILES	system	setting	half-life
Nc1nc(Cl)nc2c1ncn2Cc1cc(OCC(F)F)cc(-c2cccnc2F)c1	rat, liver microsomes	–	27 min
C#Cc1cccc(Nc2ncnc3cc(OC)c(OCCCN4CCOCC4)cc23)c1	rat, liver microsomes	1 µM, pH 7.4	11.8 min
O=C(Cc1ccccc1)Nc1nc2ccccc2n1Cc1ccccc1	rat, liver microsomes	–	12 min and 12.2 min
